# Assay results gathered from unrelated publications.
# Each line is one published result; not all experiments were run side by side.
# Organism: Enterococcus faecalis
Compound,test,system,setting,MIC
CNC(CC(C)C)C(=O)NC1C(=O)NC(CC(N)=O)C(=O)NC2C(=O)NC3C(=O)NC(C(=O)NC(C(=O)NCCNC(=N)N)c4cc(O)cc(O)c4-c4cc3ccc4O)C(O)c3ccc(c(Cl)c3)Oc3cc2cc(c3OC2OC(CO)C(O)C(O)C2OC2CC(C)(N)C(O)C(C)O2)Oc2ccc(cc2Cl)C1O (stereo not drawn),broth microdilution,ATCC BAA-2573 VanA,,8 µg/mL
COC(Cn1ccn(C)[c]1=[Ag][O]C(C)=O)c1ccccc1 (stereo not drawn),broth dilution,ATCC 19433,"18 h, 37 °C",20 µg/mL
CNC(CC(C)C)C(=O)NC1C(=O)NC(CC(N)=O)C(=O)NC2C(=O)NC3C(=O)NC(C(=O)NC(C(=O)NC(CCCNC(=N)N)C(=O)OC)c4cc(O)cc(O)c4-c4cc3ccc4O)C(O)c3ccc(c(Cl)c3)Oc3cc2cc(c3OC2OC(CO)C(O)C(O)C2OC2CC(C)(N)C(O)C(C)O2)Oc2ccc(cc2Cl)C1O (stereo not drawn),broth microdilution,BM 4166 VanA,,8 µg/mL
CN(C)c1cc(CNCC2CCCCC2)c(O)c2c1C[C@H]1C[C@H]3[C@H](N(C)C)C(O)=C(C(N)=O)C(=O)[C@@]3(O)C(O)=C1C2=O,"microbial growth, broth dilution",,,1 µg/mL
COc1cc(Cc2cnc(N)nc2N)cc(/C=C/C(=O)N2N=Cc3ccccc3C2Cc2ccc(OC(F)(F)F)cc2)c1OC (stereo not drawn),"microbial growth, broth dilution",ATCC29212,,1 µg/mL
C/C(=N/NC(=N)N)c1nnn(-c2ccc(C#CC(C)(C)C)cc2)c1C,"microbial growth, broth dilution",ATCC51299,,8 µg/mL
CC1=CC2(C)C(=C(C)C3C4CC(C)CC(C)C4C4Oc5ccc(cc5)CC5(O)NC(=O)C(=C(O)C2C43)C5Nc2ncnc3c2ncn3C2OC(CO)C(O)C2O)C1C (stereo not drawn),"microbial growth, broth dilution",ATCC29212,,6.3 µM
CN(C)c1cc(CNCCC(C)(C)C)c(O)c2c1C[C@H]1C[C@H]3[C@H](N(C)C)C(O)=C(C(N)=O)C(=O)[C@@]3(O)C(O)=C1C2=O,,"JH2-2(pMV158), Tet L efflux",,1 µg/mL
COc1c(NC(=O)c2ccc(NC(=O)c3ccc(NC(=O)[C@H](CC#N)NC(=O)c4ccc(NC(=O)/C(C)=C/c5ccc(O)cc5)cc4)cc3)c(OC)c2O)ccc(C(=O)O)c1O,microbial growth,ATCC29212,,4 µg/mL
CCN(CC)CCCN1/C(=C/c2cc[n+](C)c3ccccc23)Sc2ccccc21,"microbial growth, broth dilution",ATCC29212,,32 µg/mL
COc1cc(Cc2cnc(N)nc2N)cc(/C=C/C(=O)N2N=Cc3ccccc3C2C=C(C)C)c1OC (stereo not drawn),,ATCC 29212,with: folinic acid 0.1 µg/mL,0.125 to 0.25 µg/mL
CC(C)=CCc1cc2c(cc1O)OC[C@H]1c3ccc(O)c(CC=C(C)C)c3O[C@@H]21,,ATCC 29212,,2 µg/mL
Cc1cc(/C=C2\Sc3ccccc3N2CCCN2CCCC2)c2ccccc2[n+]1C,"microbial growth, broth dilution",ATCC29212,,64 µg/mL
CNC(CC(C)C)C(=O)NC1C(=O)NC(CC(N)=O)C(=O)NC2C(=O)NC3C(=O)NC(C(=O)NC(C(=O)NCCCNC(=N)N)c4cc(O)cc(O)c4-c4cc3ccc4O)C(O)c3ccc(c(Cl)c3)Oc3cc2cc(c3OC2OC(CO)C(O)C(O)C2OC2CC(C)(N)C(O)C(C)O2)Oc2ccc(cc2Cl)C1O (stereo not drawn),,VanB ATCC 51299,,8 µg/mL
Oc1c(Br)cc(Br)c2nc3cc(F)ccc3nc12,"microbial growth, broth dilution",OG1RF,,6.25 µM
CCCCCCCCCCCCCCCCCCCCCCSCC1OC(OC2C(N)CC(N)C(OC3OC(CN)C(O)CC3N)C2O)C(O)C(N)C1O (stereo not drawn),,ATCC 29212,,> 150 µg/mL
c1ccc(CN2CCOCCOCCN(CCCCCCCCCCN3CCOCCOCCN(CCCCCCCCCCN4CCOCCOCCN(Cc5ccccc5)CCOCCOCC4)CCOCCOCC3)CCOCCOCC2)cc1,microbial growth,,,6 µM
COc1cccc(C2Nc3ccccc3C3=[O+][Cu-2]4([Cl])[O]c5c(cccc5OC)C=[N+]4N32)c1O (stereo not drawn),broth microdilution,ATCC 29213,24 h,> 256 µg/mL
CCC1(C)CCN(Cc2cc(N(C)C)c3c(c2O)C(=O)C2=C(O)[C@]4(O)C(=O)C(C(N)=O)=C(O)[C@@H](N(C)C)[C@@H]4C[C@@H]2C3)CC1,"microbial growth, broth dilution",,,1 µg/mL
COc1cc(Cc2cnc(N)nc2N)cc(/C=C/C(=O)N2N=Cc3ccccc3C2c2ccc(C)cc2)c1OC (stereo not drawn),"microbial growth, broth dilution",ATCC29212,,0.25 µg/mL
CC(C)C(O)C(NC(=O)[C@H](Cc1ccc(O)cc1)NC(=O)C(Cc1ccc(O)c(Cl)c1)[N+](C)(C)C)C(=O)N[C@@H](C)C(=O)O (stereo partly drawn),CLSI broth microdilution,ATCC 19433,,> 100 µM
CNC(CC(C)C)C(=O)NC1C(=O)NC(CC(N)=O)C(=O)NC2C(=O)NC3C(=O)NC(C(=O)NC(C(=O)NCCCCNC(=N)N)c4cc(O)cc(O)c4-c4cc3ccc4O)C(O)c3ccc(c(Cl)c3)Oc3cc2cc(c3OC2OC(CO)C(O)C(O)C2OC2CC(C)(N)C(O)C(C)O2)Oc2ccc(cc2Cl)C1O (stereo not drawn),broth microdilution,BM 4166 VanA,,16 µg/mL
Oc1c(Br)ccc2cccnc12,"microbial growth, agar dilution",ATCC29212,,35.7 µM
CCC(O)CC#Cc1ccc(-n2nnc(/C(C)=N\NC(=N)N)c2C)cc1 (stereo not drawn),"microbial growth, broth dilution",ATCC51299,,> 64 µg/mL
CN(C)c1cc(CN2CCCCCC2)c(O)c2c1C[C@H]1C[C@H]3[C@H](N(C)C)C(O)=C(C(N)=O)C(=O)[C@@]3(O)C(O)=C1C2=O,"microbial growth, broth dilution",,,1 µg/mL
COc1c(CC=C(C)C)c(O)cc2c1[C@@H]1Oc3c(ccc(O)c3CC=C(C)C)[C@@H]1CO2,,ATCC 29212,,128 µg/mL
COCCOC(=O)NCc1cc(N(C)C)c2c(c1O)C(=O)C1=C(O)[C@]3(O)C(=O)C(C(N)=O)=C(O)[C@@H](N(C)C)[C@@H]3C[C@@H]1C2,"microbial growth, broth dilution",,,4 µg/mL
Oc1c(Cl)cc(Cl)c2cccnc12,"microbial growth, agar dilution",ATCC33186,,37.4 µM
COc1cc(Cc2cnc(N)nc2N)cc(/C=C/C(=O)N2N=Cc3ccccc3C2c2ccccc2)c1OC (stereo not drawn),,ATCC 29212,racemate,0.06 to 0.125 µg/mL
CN(C)c1cc(CN)c(O)c2c1C[C@H]1C[C@H]3[C@H](N(C)C)C(O)=C(C(N)=O)C(=O)[C@@]3(O)C(O)=C1C2=O,"microbial growth, broth dilution",,,4 µg/mL
COc1cc(Cc2cnc(N)nc2N)cc(/C=C/C(=O)N2N=Cc3ccccc3C2Cc2ccccc2)c1OC (stereo not drawn),"microbial growth, broth dilution",ATCC29212,,0.5 µg/mL
CN(C)c1cc(CNCc2ccncc2)c(O)c2c1C[C@H]1C[C@H]3[C@H](N(C)C)C(O)=C(C(N)=O)C(=O)[C@@]3(O)C(O)=C1C2=O,"microbial growth, broth dilution",,,2 µg/mL
COc1cc(Cc2cnc(N)nc2N)cc(/C=C/C(=O)N2N=Cc3ccccc3C2c2cccc(F)c2)c1OC (stereo not drawn),"microbial growth, broth dilution",ATCC29212,,0.125 µg/mL
CNC(CC(C)C)C(=O)NC1C(=O)NC(CC(N)=O)C(=O)NC2C(=O)NC3C(=O)NC(C(=O)NC(C(=O)NCCCCCCNC(=N)N)c4cc(O)cc(O)c4-c4cc3ccc4O)C(O)c3ccc(c(Cl)c3)Oc3cc2cc(c3OC2OC(CO)C(O)C(O)C2OC2CC(C)(N)C(O)C(C)O2)Oc2ccc(cc2Cl)C1O (stereo not drawn),broth microdilution,BM 4166 VanA,,16 µg/mL
COc1cc(Cc2cnc(N)nc2N)cc(/C=C/C(=O)N2N=Cc3ccccc3C2CC(C)C)c1OC (stereo not drawn),"microbial growth, broth dilution",ATCC29212,,0.125 µg/mL
Cc1csc(NCc2cc(N(C)C)c3c(c2O)C(=O)C2=C(O)[C@]4(O)C(=O)C(C(N)=O)=C(O)[C@@H](N(C)C)[C@@H]4C[C@@H]2C3)n1,"microbial growth, broth dilution",,,4 µg/mL

# Excerpt of the above:
Compound,test,system,setting,MIC
CN(C)c1cc(CNCc2ccncc2)c(O)c2c1C[C@H]1C[C@H]3[C@H](N(C)C)C(O)=C(C(N)=O)C(=O)[C@@]3(O)C(O)=C1C2=O,"microbial growth, broth dilution",,,2 µg/mL
C/C(=N/NC(=N)N)c1nnn(-c2ccc(C#CC(C)(C)C)cc2)c1C,"microbial growth, broth dilution",ATCC51299,,8 µg/mL
CC(C)C(O)C(NC(=O)[C@H](Cc1ccc(O)cc1)NC(=O)C(Cc1ccc(O)c(Cl)c1)[N+](C)(C)C)C(=O)N[C@@H](C)C(=O)O (stereo partly drawn),CLSI broth microdilution,ATCC 19433,,> 100 µM
